Measured values from different studies.
Target: Mitogen-activated protein kinase kinase kinase 5 (MAP3K5, Homo sapiens, UniProt Q99683)

The remaining binding of `COc1c(Cl)cccc1Nc1c(-c2ccncc2C#C[C@@]2(C)CCCN2C(=O)/C=C/CN(C)C)[nH]c2c1C(=O)NCC2` is reported as 100% (binding, competition with immobilised ligand; 3 µM).
Under “activity vs control”, `O=C(Cc1ccc(OCc2ccccc2)cc1)NC1(C(=O)O)CCN(C(=O)c2ccc(-c3cccc(Cl)c3)cc2)CC1` is recorded as 114% (enzyme activity, inhibitor; 10 µM).
With `C=CC(=O)N1Cc2nc(-c3cc(-c4cc(Cl)cnc4Cl)c(F)cc3F)n(-c3ccncn3)c2C1` the inhibition was 10.7% (cell-free assay, inhibitor; 1 µM).
For `CNC(=O)C1CCN(c2cc(C)c(F)cc2NC(=O)c2ccc(-c3cc(O)ccc3C)c(C)c2)CC1`, the remaining binding was 95% (binding, competition with immobilised ligand; 1 µM).
The remaining activity of `O=C=[N][Ru-4]123([n]4c5ccc(O)cc5c5c6c(c7cc(F)c[n+]1c7c54)C(=O)NC6=O)[S+]1CC[S+]2CC[S+]3CC1` (centres unmarked) is reported as 104% (enzyme activity; 100 nM, human enzyme, with: 10 µM ATP; relative to: untreated).
`COc1c(OCCCN2CCOCC2)ccc2c1N=C(NC(=O)c1cnc(N)nc1)N1CCN=C21` gave a remaining activity of 99% (kinase activity, inhibitor; 1 µM; relative to: untreated control).
`CC(C)=CC1OC(C)(C)C2C=C3C(=O)C(Cl)=CC(O)C3C3C(O)C4OC4C(=O)C132` (centres unmarked) has a remaining binding of 100% (cell-free assay, competition with immobilised ligand; 10 µM).
`Cc1nc2c(F)cc(-c3nc(Nc4ccc(CNC(=O)CCCCCCC(=O)NO)cc4)ncc3F)cc2n1C(C)C` has an inhibition of 9% (enzyme activity, inhibitor; 1 µM).
`O=C(O)CCC(=O)c1cccc(NS(=O)(=O)c2c[nH]c3ncccc23)c1` gave a remaining activity of 91% (kinase activity, radiometric; 10 µM).
For `NC(=O)C[C@H]1CCc2sc3ncnc(O[C@H]4CC[C@H](N5CCOCC5)CC4)c3c21`, the inhibition was 4% (enzyme activity, inhibitor; 10 µM).
For `COc1cc(Nc2nccc(-c3cnn4nc(OC)ccc34)n2)cc(C(F)(F)F)c1`, the remaining binding was 100% (binding, competition with immobilised ligand; 1 µM).
`CS(=O)(=O)Nc1cccc(-c2csc3cnc(Nc4ccc(N5CCN(CCCCCOc6cccc7c6C(=O)N(C6CCC(=O)NC6=O)C7=O)CC5)cc4)nc23)c1` (centres unmarked) gave an inhibition of 2.14% (probe labelling, inhibitor, KiNativ chemoproteomics; MOLT-4; 1 µM).
For `Nc1ncc(-c2cc(-c3cnn(CC(F)(F)F)c3)ncc2F)nc1C(=O)NC1CNCC(F)C1` (centres unmarked), the remaining activity was 87.8% (enzyme activity; 1 µM; relative to: DMSO control).
The inhibition of `CN1CC[C@@H](COc2cnc(C#N)cc2-c2ccn3nc(NC(=O)C4CC4)cc3c2)C1` is reported as 7% (enzyme activity, inhibitor; 1 µM).

Excerpt of the above:
For `Nc1ncc(-c2cc(-c3cnn(CC(F)(F)F)c3)ncc2F)nc1C(=O)NC1CNCC(F)C1` (centres unmarked), the remaining activity was 87.8% (enzyme activity; 1 µM; relative to: DMSO control).
